# Assay results gathered from unrelated publications.
# Lines come from different studies, so protocols differ. Several values in a cell are separate wells, animals, samples, runs or records. ± gives the spread as reported.
# GABA-A receptor; alpha-1/beta-3/gamma-2: GABA-A receptor; alpha-1/beta-3/gamma-2 (Homo sapiens, UniProt P14867+P18507+P28472)
# Sequence of UniProt P14867 (whole entry, looked up): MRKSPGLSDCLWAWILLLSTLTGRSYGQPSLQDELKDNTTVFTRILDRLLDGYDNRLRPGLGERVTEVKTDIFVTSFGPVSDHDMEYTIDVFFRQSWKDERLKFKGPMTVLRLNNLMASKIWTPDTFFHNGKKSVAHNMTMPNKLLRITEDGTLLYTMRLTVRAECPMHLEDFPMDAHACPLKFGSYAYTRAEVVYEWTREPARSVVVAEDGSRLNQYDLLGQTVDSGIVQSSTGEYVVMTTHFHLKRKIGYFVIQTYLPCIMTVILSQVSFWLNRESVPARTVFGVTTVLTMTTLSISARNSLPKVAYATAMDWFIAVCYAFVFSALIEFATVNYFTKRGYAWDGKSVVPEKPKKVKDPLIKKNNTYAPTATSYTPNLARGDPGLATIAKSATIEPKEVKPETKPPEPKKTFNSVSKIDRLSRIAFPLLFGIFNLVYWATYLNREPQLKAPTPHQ
# Sequence of UniProt P28472 (whole entry, looked up): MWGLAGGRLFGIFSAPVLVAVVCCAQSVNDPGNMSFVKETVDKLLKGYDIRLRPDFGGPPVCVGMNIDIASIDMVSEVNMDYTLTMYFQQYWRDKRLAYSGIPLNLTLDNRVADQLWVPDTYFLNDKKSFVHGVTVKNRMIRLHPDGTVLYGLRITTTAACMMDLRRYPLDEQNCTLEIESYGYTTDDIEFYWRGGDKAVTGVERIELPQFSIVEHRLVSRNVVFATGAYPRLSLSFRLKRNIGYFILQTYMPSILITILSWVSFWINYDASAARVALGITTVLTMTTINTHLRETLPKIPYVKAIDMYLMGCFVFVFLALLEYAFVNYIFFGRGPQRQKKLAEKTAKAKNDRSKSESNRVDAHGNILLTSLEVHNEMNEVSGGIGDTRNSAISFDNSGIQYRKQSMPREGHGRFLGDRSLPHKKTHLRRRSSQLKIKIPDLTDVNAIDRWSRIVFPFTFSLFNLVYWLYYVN
# Sequence of UniProt P18507 (whole entry, looked up): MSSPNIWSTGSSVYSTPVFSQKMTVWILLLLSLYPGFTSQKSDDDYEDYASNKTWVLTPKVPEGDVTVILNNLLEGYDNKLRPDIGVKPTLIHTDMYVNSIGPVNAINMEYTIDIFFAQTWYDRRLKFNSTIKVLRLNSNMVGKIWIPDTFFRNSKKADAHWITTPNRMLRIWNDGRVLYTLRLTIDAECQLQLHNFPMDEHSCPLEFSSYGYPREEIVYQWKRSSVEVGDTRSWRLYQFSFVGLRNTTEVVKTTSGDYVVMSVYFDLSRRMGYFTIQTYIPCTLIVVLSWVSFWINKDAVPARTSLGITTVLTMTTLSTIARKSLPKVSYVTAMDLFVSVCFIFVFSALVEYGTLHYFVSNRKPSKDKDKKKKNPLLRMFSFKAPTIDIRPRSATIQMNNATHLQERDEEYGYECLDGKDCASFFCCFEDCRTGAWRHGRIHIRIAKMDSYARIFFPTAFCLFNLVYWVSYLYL
# OPRD1: Delta-type opioid receptor (OPRD1, Homo sapiens, UniProt P41143)
# Sequence of UniProt P41143 (whole entry, looked up): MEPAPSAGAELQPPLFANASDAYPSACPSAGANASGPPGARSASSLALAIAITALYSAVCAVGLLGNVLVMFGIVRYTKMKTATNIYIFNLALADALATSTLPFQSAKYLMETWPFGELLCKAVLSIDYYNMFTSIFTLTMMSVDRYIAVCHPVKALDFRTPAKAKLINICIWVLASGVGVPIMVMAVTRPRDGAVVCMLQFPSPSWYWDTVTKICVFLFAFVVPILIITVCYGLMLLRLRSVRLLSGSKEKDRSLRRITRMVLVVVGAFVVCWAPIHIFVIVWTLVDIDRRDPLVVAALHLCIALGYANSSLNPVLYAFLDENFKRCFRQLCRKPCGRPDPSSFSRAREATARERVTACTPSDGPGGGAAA
# Sequence of UniProt Q01959 (whole entry, looked up): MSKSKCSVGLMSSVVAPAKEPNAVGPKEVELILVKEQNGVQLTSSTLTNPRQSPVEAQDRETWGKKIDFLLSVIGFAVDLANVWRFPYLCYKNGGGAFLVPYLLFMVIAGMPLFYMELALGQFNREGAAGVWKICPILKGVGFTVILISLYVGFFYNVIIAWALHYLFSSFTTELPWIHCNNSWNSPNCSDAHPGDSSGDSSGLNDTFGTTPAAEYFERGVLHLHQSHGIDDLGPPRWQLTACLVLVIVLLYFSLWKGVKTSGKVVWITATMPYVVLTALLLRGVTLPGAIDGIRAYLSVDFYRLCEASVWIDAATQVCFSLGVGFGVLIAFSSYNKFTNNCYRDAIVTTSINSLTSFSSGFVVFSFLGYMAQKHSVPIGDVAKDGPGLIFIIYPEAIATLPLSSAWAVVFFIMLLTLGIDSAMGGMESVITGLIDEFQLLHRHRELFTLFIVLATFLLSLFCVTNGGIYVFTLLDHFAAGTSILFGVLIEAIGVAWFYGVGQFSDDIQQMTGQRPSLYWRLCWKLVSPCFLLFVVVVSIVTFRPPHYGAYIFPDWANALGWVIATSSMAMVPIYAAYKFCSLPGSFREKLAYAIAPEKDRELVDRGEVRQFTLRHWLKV
# Sequence of UniProt P9WIL3 (whole entry, looked up): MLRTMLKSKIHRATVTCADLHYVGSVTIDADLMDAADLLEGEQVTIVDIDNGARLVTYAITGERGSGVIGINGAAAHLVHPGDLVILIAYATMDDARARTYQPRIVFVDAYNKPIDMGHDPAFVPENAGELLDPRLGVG
# Sequence of UniProt P47869 (whole entry, looked up): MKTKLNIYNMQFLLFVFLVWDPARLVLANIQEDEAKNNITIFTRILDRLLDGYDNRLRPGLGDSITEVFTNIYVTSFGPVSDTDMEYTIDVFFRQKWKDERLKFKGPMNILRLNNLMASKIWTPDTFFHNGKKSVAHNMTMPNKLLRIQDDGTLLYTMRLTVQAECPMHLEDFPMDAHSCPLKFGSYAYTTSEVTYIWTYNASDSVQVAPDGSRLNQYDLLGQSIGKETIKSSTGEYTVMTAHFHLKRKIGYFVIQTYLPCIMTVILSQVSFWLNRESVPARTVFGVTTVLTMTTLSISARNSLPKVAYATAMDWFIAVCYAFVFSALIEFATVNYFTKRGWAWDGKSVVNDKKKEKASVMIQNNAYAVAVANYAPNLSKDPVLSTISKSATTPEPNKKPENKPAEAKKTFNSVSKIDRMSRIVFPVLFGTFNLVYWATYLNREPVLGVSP
# Sequence of UniProt Q92993 (whole entry, looked up): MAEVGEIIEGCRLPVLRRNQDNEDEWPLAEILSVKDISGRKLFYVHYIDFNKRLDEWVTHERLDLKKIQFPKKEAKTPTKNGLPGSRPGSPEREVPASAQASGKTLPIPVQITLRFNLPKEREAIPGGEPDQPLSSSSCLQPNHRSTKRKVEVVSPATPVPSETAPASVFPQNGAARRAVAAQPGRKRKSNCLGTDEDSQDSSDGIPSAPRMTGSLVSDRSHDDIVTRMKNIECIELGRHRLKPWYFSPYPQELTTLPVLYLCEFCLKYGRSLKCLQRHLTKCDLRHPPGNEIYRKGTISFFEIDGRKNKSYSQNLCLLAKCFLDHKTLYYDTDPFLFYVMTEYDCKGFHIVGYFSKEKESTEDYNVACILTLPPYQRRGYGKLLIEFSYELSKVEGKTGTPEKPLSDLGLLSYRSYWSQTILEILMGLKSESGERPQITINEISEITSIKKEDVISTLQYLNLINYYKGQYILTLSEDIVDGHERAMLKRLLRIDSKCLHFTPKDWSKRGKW
# Sequence of UniProt P36544 (whole entry, looked up): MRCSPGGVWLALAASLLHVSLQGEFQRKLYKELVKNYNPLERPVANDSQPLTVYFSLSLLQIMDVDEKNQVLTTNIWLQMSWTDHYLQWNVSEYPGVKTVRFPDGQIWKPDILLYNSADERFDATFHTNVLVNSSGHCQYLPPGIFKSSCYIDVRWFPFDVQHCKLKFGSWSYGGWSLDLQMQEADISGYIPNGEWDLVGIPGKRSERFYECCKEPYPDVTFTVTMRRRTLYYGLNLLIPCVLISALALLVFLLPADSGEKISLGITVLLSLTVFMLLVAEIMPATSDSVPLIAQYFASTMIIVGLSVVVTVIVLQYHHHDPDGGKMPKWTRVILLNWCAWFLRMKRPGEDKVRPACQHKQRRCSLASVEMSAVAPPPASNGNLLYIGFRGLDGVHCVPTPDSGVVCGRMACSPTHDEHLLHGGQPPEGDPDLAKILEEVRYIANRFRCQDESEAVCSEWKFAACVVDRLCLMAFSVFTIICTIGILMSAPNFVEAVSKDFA
# Sequence of UniProt P49116 (whole entry, looked up): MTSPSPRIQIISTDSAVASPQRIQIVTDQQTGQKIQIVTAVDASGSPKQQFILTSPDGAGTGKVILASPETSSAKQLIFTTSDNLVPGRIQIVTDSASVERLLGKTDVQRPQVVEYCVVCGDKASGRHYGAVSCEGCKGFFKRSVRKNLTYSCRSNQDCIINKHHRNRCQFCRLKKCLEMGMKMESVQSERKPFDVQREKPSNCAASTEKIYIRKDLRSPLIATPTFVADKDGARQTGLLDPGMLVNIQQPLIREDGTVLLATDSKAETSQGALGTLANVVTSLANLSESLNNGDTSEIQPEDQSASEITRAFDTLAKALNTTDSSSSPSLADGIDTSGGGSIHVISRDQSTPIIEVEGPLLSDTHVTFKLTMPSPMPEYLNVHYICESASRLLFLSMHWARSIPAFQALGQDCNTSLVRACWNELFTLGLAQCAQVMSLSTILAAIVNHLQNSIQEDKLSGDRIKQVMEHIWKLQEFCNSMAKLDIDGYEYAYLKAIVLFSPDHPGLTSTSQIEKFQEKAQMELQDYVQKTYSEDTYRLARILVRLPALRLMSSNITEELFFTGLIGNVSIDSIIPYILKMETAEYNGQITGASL
# Sequence of UniProt O95136 (whole entry, looked up): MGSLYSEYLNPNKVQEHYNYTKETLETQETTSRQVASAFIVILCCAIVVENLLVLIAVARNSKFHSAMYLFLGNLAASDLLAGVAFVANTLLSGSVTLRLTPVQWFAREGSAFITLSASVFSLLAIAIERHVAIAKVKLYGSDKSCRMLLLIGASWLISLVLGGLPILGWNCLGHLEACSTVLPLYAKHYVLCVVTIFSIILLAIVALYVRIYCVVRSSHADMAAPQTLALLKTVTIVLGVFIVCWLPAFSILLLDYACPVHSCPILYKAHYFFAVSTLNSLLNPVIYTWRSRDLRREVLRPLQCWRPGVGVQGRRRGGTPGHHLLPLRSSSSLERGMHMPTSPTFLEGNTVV
SMILES,tested on,assay,test system,conditions,how to read,endpoint,value
CC(C)c1ccc(Sc2ccc3nnc(C(F)(F)F)n3n2)cc1,"Grin3a/Grin1 (Mus musculus, UniProt A2AIR5+P35438)","control response, whole-cell patch clamp",mouse brain slice interneurons,20 µM,,remaining activity,290 ± 50%
CN[C@]1(c2ccccc2Cl)CCCCC1=O,"CHRNA7 (Homo sapiens, UniProt P36544)","radioligand binding, antagonist, radioligand displacement",,30 µM,,inhibition,2%
"COc1cc(CCNC(C)c2ccccc2O)c(OC)cc1C#N (single isomer, unassigned; (-))","HTR2A (Homo sapiens, UniProt P28223)","receptor activation, agonist",,,,Emax,93%
Cc1ccc(C(=O)Nc2ccc(Oc3cc4cnn(C)c4cc3-c3cn[nH]c3)c(F)c2)c(=O)n1-c1ccc(F)cc1,"MET (Homo sapiens, UniProt P08581, C1091S/C1146S/K1232C/L1195V)",,,concentration not given,relative to: wild type,Kd fold change,≤ 1.5 fold
CN1CC[C@]2(C)c3cc(OC(=O)Nc4ccccc4)ccc3N(C)[C@H]12,human nicotinic α2β2 receptor,radioligand binding,,"10 µM, with: [3H]epibatidine",,inhibition,0%
NCC(CS(=O)(=O)O)c1ccc(Cl)cc1 (stereo not drawn),de novo protein S23,"binding, NMR",,,,Kd,42 ± 17 µM
Nc1ncnc2c1ncn2[C@@H]1O[C@H](CSCC[C@H](N)C(=O)O)[C@@H](O)[C@H]1O,"Replicase polyprotein 1ab, nsp10-nsp16 complex (rep, Human coronavirus 229E, UniProt P0C6X1)",,,,,Hill slope,-0.7
O=C1NC(=S)NC(=O)C12CCc1ccccc12,GABA-A receptor; alpha-1/beta-3/gamma-2,,,300 µM,,Emax,2%
C[C@@H](O)[C@@H](CO)NC(=O)[C@@H](CCCNC(=N)N)NC(=O)[C@@H]1CCCN1C(=O)[C@@H]1CSSC[C@H](NC(=O)[C@H](Cc2ccccc2)NC(=O)CN2CCN(CC(=O)O)CCN(CC(=O)O)CCN(CC(=O)O)CC2)C(=O)N[C@@H](Cc2ccc(O)cc2)C(=O)N[C@@H](Cc2ccccc2)C(=O)N[C@@H](CCC(N)=O)C(=O)N[C@@H](CC(N)=O)C(=O)N1 [gallium-68 labelled],,,"healthy Wistar rat, thyroid","intravenous, 8 MBq, 30 min, individual animals",,tissue uptake,0.28 %ID/g
CCCCCCC(C)(C)c1ccc([C@@H]2C[C@H](O)CC[C@H]2CCCO)c(O)c1,"CNR1 (Homo sapiens, UniProt P21554, F170A)","cAMP inhibition, agonist, CAMYEL BRET biosensor",,with: 10 µM forskolin,relative to: wild type receptor,Emax,39.8 ± 14.1%
CN1C(=O)NC(=O)[C@@]2(CCc3ccccc32)C1=O,GABA-A receptor; alpha-1/beta-3/gamma-2,,,300 µM,,Emax,8%
COc1cc(Nc2ncc(F)c(Nc3ccc4c(n3)NC(=O)C(C)(C)O4)n2)cc(OC)c1OC,"Receptor-type tyrosine-protein phosphatase F (Homo sapiens, UniProt P10586)","phosphatase activity, inhibitor",,,,IC50,> 10 µM
COc1c(CCC[P+](c2ccccc2)(c2ccccc2)c2ccccc2)cc2c(c1OC)OCO2.[I-],PC-3,SRB,,,,GI50,-6.02 log M
COc1cc2c(Oc3ccc4[nH]c(C)cc4c3F)ccnc2cc1OCC1(N)CC1,,,paediatric refractory sarcoma patients,12 mg,,Haematochezia incidence,9.1%
Cn1cc2cc(C(F)(F)c3nnc4ccc(-c5cnn(C6CC6)c5)nn34)c(F)cc2n1,"MET (Homo sapiens, UniProt P08581, C1091S/C1146S/K1232C/Y1230S)",,,concentration not given,relative to: wild type,Kd fold change,not detected
Cc1onc(O)c1C[C@H](N)C(=O)O,AMPA glutamate receptor (rat),radioligand binding,rat brain,1×10 µM,,inhibition,98.9%
CC(C)c1ccc2c(c1)C1(CC2)C(=O)NC(=S)NC1=O,GABA-A receptor; alpha-1/beta-3/gamma-2,,,300 µM,,Emax,54%
CC(C)=CCN1CC[C@]2(C)c3cc(O)ccc3C[C@H]1[C@H]2C,sigma-1 receptor (guinea pig),radioligand binding,,concentration not given,,inhibition,98.8%
Nc1ncnc2c1ncn2[C@@H]1O[C@H](COP(=O)(O)OP(=O)(O)OP(=O)(O)O)[C@@H](O)[C@H]1O,"MET (Homo sapiens, UniProt P08581)",substrate,,,,Km,40 µM
COc1ccc(C(=O)N[C@H]2CC[C@@]3(O)[C@H]4Cc5ccc(O)c6c5[C@@]3(CCN4CC3CC3)[C@H]2O6)s1.Cl,OPRD1,radioligand binding,CHO membranes,,relative to: Ki µ over Ki δ,selectivity ratio,19.6
Brc1ccc2c(c1)C(c1ccccn1)=NCc1c(-c3cnco3)ncn1-2,"GABRG2/GABRA2, with β3 subunit (Homo sapiens, UniProt P18507+P47869)",[3H]flunitrazepam binding,,,relative to: α2β3γ2 over α1β3γ2 GABA-A,selectivity ratio,1.93
C[C@]1(CO)Cc2ncn(-c3ccc(C#N)c(Cl)c3)c2C(=O)O1,,,healthy humans,"oral, 10 mg",relative to: fasted,AUC0–∞ ratio fed over fasted,103%
CO[C@H]1C[C@@H]2CC[C@@H](C)[C@@](O)(O2)C(=O)C(=O)N2CCCC[C@H]2C(=O)O[C@H]([C@H](C)C[C@@H]2CC[C@@H](OC(=O)NCCOCCOCCOCCOCCOCCOCCOCCOCCC(=O)N3CCc4cc(Cn5nc(-c6ccc7oc(N)nc7c6)c6c(N)ncnc65)ccc4C3)[C@H](OC)C2)C[C@@H](O)[C@H](C)/C=C(\C)[C@@H](O)[C@@H](OC)C(=O)[C@H](C)C[C@H](C)/C=C/C=C/C=C/1C,,,patients with advanced solid tumours,"intravenous, dose not given, any grade",,Fatigue AE leading to dose reduction,1.8%
CCC1(c2cccc(O)c2)CCCCN(C)C1 (stereo not drawn),"Nuclear receptor subfamily 2 group C member 2, ligand-binding domain (Homo sapiens, UniProt P49116)",SPR imaging,,600 nM,,koff,8.68e-06 s⁻¹
CCNC(CC)C(=O)c1ccc2c(c1)OCO2 (stereo not drawn),"Slc6a3 (Rattus norvegicus, UniProt P23977)","substrate release, releaser",rat brain synaptosomes,with: [3H]MPP+ 9 nM,,EC50,inactive
C[C@H]1CN(c2n[nH]c3nc(N[C@H]4CC[C@H](NS(=O)(=O)CCC(F)(F)F)CC4)ncc23)CCO1,"Transportin-1 (TNPO1, Homo sapiens, UniProt Q92973)","inhibitor, Kinobeads competition profiling",,20 µM,relative to: vehicle,relative abundance,1.21
Cl.O=C(N[C@H]1CC[C@@]2(O)[C@H]3Cc4ccc(O)c5c4[C@@]2(CCN3CC2CC2)[C@H]1O5)c1ccc(C(F)(F)F)s1,OPRD1,radioligand binding,CHO membranes,,relative to: Ki µ over Ki δ,selectivity ratio,141
COc1ccc(N2C(=O)N(c3c(C)cccc3Cl)Cc3cnc(Nc4ccc(C5CCN(C)CC5)cc4OC)nc32)nc1,"DAPK3 (Homo sapiens, UniProt O43293)",kinase activity,,0.5 µM,,inhibition,2.15%
c1ccc2cc([C@]34CNC[C@H]3C4)ccc2c1,"SLC6A3 (Homo sapiens, UniProt Q01959)","inhibitor, [3H]dopamine uptake",,100 nM,relative to: no inhibitor,dopamine uptake,47.4% and 48.6% and 80.3%
Oc1ccc2c3c1O[C@H]1[C@@H](O)CC[C@@]4(O)[C@@H](C2)N(CC2CCC2)CC[C@]314,"Probable G-protein coupled receptor 19 (GPR19, Homo sapiens, UniProt Q15760)","β-arrestin recruitment, TANGO luminescence, refers to: GPR19",,concentration not given,relative to: basal luminescence,log2 fold change,-0.03
CN1C(=O)NC(=O)C2(CCc3ccc(Br)cc32)C1=O (stereo not drawn),GABA-A receptor; alpha-1/beta-3/gamma-2,,,300 µM,,Emax,40%
CCCc1cc(O)c2c(c1)OC(C)(C)[C@@H]1CCC(C)=C[C@@H]21,"TRPV3 (Homo sapiens, UniProt Q8NET8, A560M)","calcium uptake, agonist",HEK293S,"mutant A560M, site 1",,Hill coefficient,2.36 ± 0.22
Cl.O=C(N[C@H]1CC[C@@]2(O)[C@H]3Cc4ccc(O)c5c4[C@@]2(CCN3CC2CC2)[C@H]1O5)c1ccc(Br)s1,OPRD1,radioligand binding,CHO membranes,,relative to: Ki µ over Ki δ,selectivity ratio,80.8
CN1CCN(c2cc(-c3ccncc3)c(-c3ccc4ccccc4c3)nn2)CC1,"S1PR2 (Homo sapiens, UniProt O95136)","agonist, FLIPR",,12.5 µM,,activation,0.5%
NC1CC2(C(=O)NC(=O)NC2=O)c2ccccc21 (racemic),GABA-A receptor; alpha-1/beta-3/gamma-2,,,300 µM,,Emax,10%
O=C(O)C[C@H](NC(=O)[C@H](CC(=O)O)NC(=O)[C@H](CC(=O)O)NC(=O)[C@H](CC(=O)O)NC(=O)[C@H](CC(=O)O)NC(=O)[C@H](CC(=O)O)NC(=O)[C@H](CC(=O)O)NC(=O)[C@H](CC(=O)O)NC(=O)[C@H](CC(=O)O)NC(=O)[C@H](CC(=O)O)NC(=O)[C@H](CC(=O)O)NC(=O)[C@H](CCCCNC(=O)c1ccc(C(=O)NCCOCCOB2BBBBBB3BBBB3B2)cc1)NC(=O)CN1CCN(CC(=O)O)CCN(CC(=O)O)CCN(CC(=O)O)CC1)C(=O)O [gallium-67 labelled],,,"ddY male mice, lung","intravenous, 37 kBq, 3 h",,tissue uptake,0.07 %ID/g
CN1C(=O)NC(=O)C2(CCCCc3ccccc32)C1=O (stereo not drawn),GABA-A receptor; alpha-1/beta-3/gamma-2,,,300 µM,,Emax,10%
CC(=O)[C@H]1CC[C@H]2[C@@H]3CC[C@H]4C[C@H](O)CC[C@]4(C)[C@H]3CC[C@]12C,"Genome polyprotein, NS3 helicase domain (Hepatitis C virus genotype 1b, UniProt Q9WMX2)","DNA binding, inhibitor",hepatitis C virus,"100 µM, with: Cy5-dT15 DNA",,inhibition,0%
CCCCC1(CCCC)CN(c2ccccc2)c2cc(SC)c(OCC(=O)N[C@@H](C(=O)NCC(=O)O)c3ccccc3)cc2S(=O)(=O)C1,,refers to: HDL cholesterol,"human, serum","15 mg once daily, day 8",,serum HDL-C,44 mg/dL
CCOc1ccccc1C(=O)Nc1ccc(Cl)c(C(F)(F)F)c1,"KAT5 (Homo sapiens, UniProt Q92993)",SPR,,50 µM,higher = more binding,SPR binding response,1.03 RU
Cc1ccc2c(c1)C1(CC2)C(=O)NC(=O)NC1=O,GABA-A receptor; alpha-1/beta-3/gamma-2,,,300 µM,,Emax,6%
O=C(O)c1nccnc1NC(=O)c1cccc2ccccc12,"Aspartate 1-decarboxylase (panD, Mycobacterium tuberculosis, UniProt P9WIL3)",enzyme activity,,"2.5 µM, 40 min, 298 K",,inhibition,~50%
